Assay results from different studies.
Every numbered part comes from another study and shows a few of its results, in no order. Substitutions count along the parent as printed.
Sequence of UniProt Q15349 (whole entry, looked up): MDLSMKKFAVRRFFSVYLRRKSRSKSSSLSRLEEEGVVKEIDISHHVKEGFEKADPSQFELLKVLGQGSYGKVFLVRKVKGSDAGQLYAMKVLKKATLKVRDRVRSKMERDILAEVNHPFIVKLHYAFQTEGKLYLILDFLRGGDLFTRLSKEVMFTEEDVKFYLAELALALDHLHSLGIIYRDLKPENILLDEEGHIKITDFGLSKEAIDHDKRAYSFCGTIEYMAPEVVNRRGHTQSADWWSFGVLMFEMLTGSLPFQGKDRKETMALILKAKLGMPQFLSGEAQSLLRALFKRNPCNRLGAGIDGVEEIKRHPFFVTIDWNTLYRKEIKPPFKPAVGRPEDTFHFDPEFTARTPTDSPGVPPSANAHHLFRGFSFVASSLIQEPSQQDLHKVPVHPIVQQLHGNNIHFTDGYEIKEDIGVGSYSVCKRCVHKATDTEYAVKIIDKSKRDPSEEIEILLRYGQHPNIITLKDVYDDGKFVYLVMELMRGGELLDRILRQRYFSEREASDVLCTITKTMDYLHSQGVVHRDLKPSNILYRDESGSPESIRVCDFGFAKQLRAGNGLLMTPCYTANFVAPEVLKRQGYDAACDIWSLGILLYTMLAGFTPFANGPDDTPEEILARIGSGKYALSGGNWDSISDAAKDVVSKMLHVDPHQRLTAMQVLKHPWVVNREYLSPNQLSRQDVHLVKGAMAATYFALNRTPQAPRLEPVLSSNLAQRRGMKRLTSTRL
Sequence of UniProt Q96PY6 (whole entry, looked up): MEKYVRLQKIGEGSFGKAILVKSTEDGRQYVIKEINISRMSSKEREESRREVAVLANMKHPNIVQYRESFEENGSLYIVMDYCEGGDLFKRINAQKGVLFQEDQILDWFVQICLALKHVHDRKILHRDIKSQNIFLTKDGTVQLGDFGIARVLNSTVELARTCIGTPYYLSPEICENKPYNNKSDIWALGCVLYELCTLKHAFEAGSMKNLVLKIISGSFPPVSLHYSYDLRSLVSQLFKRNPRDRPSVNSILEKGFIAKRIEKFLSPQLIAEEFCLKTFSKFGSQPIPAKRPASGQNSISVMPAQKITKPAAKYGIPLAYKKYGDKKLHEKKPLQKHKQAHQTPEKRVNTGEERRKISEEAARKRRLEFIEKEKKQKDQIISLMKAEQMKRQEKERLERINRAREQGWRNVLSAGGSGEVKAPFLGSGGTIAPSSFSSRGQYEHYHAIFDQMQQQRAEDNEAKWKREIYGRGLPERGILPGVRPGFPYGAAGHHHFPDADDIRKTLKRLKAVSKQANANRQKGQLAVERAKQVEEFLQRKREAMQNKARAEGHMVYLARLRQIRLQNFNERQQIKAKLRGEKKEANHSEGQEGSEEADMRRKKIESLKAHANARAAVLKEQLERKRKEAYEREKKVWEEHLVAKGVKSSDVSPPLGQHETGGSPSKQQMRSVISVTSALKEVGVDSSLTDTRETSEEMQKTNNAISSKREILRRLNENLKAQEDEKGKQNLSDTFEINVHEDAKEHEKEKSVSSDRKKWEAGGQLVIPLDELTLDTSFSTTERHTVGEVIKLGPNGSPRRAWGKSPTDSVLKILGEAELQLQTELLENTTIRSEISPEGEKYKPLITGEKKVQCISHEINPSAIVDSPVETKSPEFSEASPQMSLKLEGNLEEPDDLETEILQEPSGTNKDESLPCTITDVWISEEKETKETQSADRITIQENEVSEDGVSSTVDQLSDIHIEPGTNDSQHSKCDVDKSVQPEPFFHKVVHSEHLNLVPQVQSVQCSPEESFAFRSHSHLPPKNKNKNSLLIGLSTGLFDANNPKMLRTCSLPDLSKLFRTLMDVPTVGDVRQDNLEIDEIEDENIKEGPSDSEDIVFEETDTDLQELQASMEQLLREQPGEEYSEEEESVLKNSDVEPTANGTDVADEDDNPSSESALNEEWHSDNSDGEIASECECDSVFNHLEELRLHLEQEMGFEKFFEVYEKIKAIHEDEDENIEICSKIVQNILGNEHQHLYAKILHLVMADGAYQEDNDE
Sequence of UniProt P22607 (whole entry, looked up): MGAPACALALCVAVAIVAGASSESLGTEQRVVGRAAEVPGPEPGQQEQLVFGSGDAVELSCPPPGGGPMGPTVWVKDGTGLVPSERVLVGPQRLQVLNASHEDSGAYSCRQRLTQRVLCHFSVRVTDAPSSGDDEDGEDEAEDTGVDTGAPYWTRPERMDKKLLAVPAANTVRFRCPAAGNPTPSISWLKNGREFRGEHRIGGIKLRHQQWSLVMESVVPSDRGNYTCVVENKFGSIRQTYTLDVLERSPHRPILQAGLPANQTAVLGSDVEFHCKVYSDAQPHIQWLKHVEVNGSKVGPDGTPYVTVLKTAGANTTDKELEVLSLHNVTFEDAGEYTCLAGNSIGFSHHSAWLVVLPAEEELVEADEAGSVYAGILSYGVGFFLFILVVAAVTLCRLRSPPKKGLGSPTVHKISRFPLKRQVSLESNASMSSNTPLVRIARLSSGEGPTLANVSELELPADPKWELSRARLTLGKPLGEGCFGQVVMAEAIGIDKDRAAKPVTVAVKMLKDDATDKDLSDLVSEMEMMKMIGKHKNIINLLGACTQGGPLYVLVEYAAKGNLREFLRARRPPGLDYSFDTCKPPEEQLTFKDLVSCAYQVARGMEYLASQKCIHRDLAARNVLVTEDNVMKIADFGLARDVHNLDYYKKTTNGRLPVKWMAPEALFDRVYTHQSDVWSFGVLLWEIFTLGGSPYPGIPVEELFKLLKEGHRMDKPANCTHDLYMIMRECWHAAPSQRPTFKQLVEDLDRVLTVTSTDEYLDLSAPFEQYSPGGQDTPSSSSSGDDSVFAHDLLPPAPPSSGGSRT
Sequence of UniProt P49841 (whole entry, looked up): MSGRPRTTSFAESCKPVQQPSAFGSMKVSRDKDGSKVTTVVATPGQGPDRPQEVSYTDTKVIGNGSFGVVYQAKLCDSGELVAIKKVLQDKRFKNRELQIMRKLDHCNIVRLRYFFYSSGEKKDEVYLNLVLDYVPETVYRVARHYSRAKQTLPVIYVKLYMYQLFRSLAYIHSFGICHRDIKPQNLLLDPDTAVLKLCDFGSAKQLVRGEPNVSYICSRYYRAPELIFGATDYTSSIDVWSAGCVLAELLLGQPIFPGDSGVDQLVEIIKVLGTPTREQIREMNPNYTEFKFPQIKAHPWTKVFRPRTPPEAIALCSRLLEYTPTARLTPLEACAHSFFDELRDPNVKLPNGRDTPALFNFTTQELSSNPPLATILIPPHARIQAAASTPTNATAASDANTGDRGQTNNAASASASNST
Sequence of UniProt Q9UL54 (whole entry, looked up): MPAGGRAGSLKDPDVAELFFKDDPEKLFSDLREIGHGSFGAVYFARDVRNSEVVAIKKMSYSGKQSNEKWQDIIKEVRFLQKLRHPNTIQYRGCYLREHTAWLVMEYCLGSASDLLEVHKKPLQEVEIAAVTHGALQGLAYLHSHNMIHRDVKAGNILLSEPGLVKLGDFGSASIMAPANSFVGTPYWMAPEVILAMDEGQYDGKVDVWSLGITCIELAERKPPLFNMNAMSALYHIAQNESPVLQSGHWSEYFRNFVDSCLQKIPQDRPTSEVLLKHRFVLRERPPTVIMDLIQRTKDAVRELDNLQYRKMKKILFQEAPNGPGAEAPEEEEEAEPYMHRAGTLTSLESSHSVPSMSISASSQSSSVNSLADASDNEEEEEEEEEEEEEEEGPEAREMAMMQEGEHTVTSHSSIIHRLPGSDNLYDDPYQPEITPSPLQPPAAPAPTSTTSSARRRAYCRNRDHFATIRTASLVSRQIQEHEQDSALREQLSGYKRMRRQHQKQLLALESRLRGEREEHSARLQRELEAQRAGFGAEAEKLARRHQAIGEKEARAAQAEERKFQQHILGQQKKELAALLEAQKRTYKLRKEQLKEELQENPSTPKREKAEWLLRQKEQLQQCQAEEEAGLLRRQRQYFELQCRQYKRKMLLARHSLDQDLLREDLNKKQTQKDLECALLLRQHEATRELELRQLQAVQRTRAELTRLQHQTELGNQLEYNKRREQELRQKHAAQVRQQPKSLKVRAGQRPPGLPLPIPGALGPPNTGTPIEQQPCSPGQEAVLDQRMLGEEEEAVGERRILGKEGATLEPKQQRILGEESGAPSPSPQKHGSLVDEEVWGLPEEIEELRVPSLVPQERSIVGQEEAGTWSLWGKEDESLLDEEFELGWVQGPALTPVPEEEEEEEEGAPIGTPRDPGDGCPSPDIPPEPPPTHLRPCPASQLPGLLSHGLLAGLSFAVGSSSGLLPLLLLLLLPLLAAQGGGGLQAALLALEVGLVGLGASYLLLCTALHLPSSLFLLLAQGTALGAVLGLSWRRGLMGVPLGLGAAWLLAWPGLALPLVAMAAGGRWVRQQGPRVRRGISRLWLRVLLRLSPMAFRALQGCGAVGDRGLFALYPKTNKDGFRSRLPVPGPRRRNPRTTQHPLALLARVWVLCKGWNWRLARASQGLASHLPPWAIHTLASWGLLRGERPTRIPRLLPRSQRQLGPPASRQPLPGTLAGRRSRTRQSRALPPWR

Block 1
Target: CEBPA, bZIP domain (human)
Technique: DHFR protein complementation
Sample: yeast
Notes: single substitutions, most at no-binding floor
Relative to: wild-type JUN-FOS pair
Direction: higher = stronger binding
Parent: JUN, bZIP domain (human); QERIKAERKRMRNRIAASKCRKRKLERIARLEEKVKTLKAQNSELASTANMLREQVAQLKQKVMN; partner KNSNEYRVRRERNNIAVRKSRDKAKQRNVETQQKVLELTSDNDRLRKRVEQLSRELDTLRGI
| Variant | binding fitness [natural log] |
| --- | --- |
| L52S | -1.48 |
| R30S | -1.38 |
| L31T | -1.48 |
| E33Q | -1.41 |
| S43G | -1.45 |
| K34S | -1.46 |
| L38K | -1.5 |
| T37E | -1.24 |

Block 2
Target: Alpha-2B adrenergic receptor (ADRA2B, Homo sapiens, UniProt P18089)
Sequence of UniProt P18089 (whole entry, looked up): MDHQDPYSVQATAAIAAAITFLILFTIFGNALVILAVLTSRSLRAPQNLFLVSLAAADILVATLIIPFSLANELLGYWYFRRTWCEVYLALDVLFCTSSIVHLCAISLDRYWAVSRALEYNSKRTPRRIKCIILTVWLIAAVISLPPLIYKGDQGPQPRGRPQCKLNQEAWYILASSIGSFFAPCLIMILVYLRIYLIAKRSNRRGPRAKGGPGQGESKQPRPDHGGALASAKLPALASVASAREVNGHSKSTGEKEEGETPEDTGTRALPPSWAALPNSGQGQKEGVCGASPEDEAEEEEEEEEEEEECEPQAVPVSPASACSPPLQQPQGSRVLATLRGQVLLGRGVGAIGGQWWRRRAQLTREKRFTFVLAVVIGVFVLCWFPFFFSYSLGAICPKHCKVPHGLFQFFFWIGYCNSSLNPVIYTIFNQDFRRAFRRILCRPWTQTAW
Observed: binding
Technique: radioligand binding
Tested at: 10 µM
| Compound | inhibition [%] |
| --- | --- |
| CN1C(=O)[C@@H](N2CCc3cn(Cc4ccccc4)nc3C2=O)COc2ccccc21 | 43.3 |
| Cc1c(NC(=O)c2cc(C(N)=O)nc3cc(F)ccc23)c(C(F)(F)F)nn1Cc1ccc(C(C)(C)C)cc1 | 15.6 |
| CCOC(=O)c1cc2cc(-c3cc(C(=O)NCc4ccc(C(=O)O)cc4)nn3C)ccc2[nH]1 | 16.4 |
| COCc1nc2cnc3cc(-c4c(C)noc4C)c(OC[C@H]4CCNC4)cc3c2n1[C@H](C)c1ccccc1 | -13.6 |
| O=C(O)c1cc(-c2ccc(C3CCNCC3)cc2)c2ccc(-c3ccc(C(F)(F)F)cc3)cc2c1 | 85.4 |
| CC(C)CC(=O)N1CCc2nc(-c3ccc(Br)cc3)nc(N(C)Cc3ccccc3)c2C1 | 29 |

Block 3
Target: PABPC1L2, full length, GST fusion (mouse, UniProt A0ABA7IW68)
Technique: RNAcompete
Molecule type: RNA
Sample: in vitro
Tested at: 20 nM
Notes: 7-mer, probes averaged, single round
Relative to: mean of 7-mers
Direction: higher = stronger binding
Construct (chain): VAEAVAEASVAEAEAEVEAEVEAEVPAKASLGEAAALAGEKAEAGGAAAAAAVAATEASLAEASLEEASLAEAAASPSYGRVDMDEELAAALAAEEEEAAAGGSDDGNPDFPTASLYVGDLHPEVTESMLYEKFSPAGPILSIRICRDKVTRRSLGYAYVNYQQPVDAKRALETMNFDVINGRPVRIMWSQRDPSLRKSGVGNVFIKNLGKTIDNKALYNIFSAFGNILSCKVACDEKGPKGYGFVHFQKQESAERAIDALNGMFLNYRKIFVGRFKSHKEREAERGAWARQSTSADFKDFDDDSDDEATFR
| Sequence | 7-mer Z-score |
| --- | --- |
| CACCCAC | -0.251 |
| UAUACGU | -0.0627 |
| GGGUCUC | -0.0808 |
| AAUAUUU | 0.0623 |
| UACGGCA | 0.0497 |
| GUGUUCA | -0.344 |
| GGCGUUA | -0.0464 |
| AUCAGCA | 0.00436 |

Block 4
Compound: N#Cc1cnc2cnc(NCc3cccnc3)cc2c1Nc1ccc(F)c(Cl)c1
Observed: enzyme activity
Mode: inhibitor
Tested at: 0.5 µM
Relative to: control
| target | remaining activity [%] |
| --- | --- |
| Macrophage-stimulating protein receptor (MST1R, Homo sapiens, UniProt Q04912) | 89.6 |
| Serine/threonine-protein kinase Nek1 (NEK1, Homo sapiens, UniProt Q96PY6) | 20.5 |
| Serine/threonine-protein kinase ULK3 (ULK3, Homo sapiens, UniProt Q6PHR2) | 72 |
| Serine/threonine-protein kinase A-Raf (ARAF, Homo sapiens, UniProt P10398) | 106 |
| Dual specificity mitogen-activated protein kinase kinase 2 (MAP2K2, Homo sapiens, UniProt P36507) | 105 |
| Activin receptor type-1B (ACVR1B, Homo sapiens, UniProt P36896) | 99 |
| Fibroblast growth factor receptor 3 (FGFR3, Homo sapiens, UniProt P22607) | 91.7 |
| Serine/threonine-protein kinase TAO2 (TAOK2, Homo sapiens, UniProt Q9UL54) | 86.1 |
| Glycogen synthase kinase-3 beta (GSK3B, Homo sapiens, UniProt P49841) | 99.8 |
| Tyrosine-protein kinase Lck (LCK, Homo sapiens, UniProt P06239) | 97.3 |
| Tyrosine-protein kinase JAK3 (JAK3, Homo sapiens, UniProt P52333) | 86.2 |
| Ribosomal protein S6 kinase alpha-2 (RPS6KA2, Homo sapiens, UniProt Q15349) | 87.3 |
| Mitogen-activated protein kinase kinase kinase 5 (MAP3K5, Homo sapiens, UniProt Q99683) | 106 |
| Casein kinase I isoform gamma-2 (CSNK1G2, Homo sapiens, UniProt P78368) | 102 |

For quick reference, copied from above (block 4):
| target | remaining activity [%] |
| --- | --- |
| Glycogen synthase kinase-3 beta (GSK3B, Homo sapiens, UniProt P49841) | 99.8 |
| Tyrosine-protein kinase Lck (LCK, Homo sapiens, UniProt P06239) | 97.3 |
| Tyrosine-protein kinase JAK3 (JAK3, Homo sapiens, UniProt P52333) | 86.2 |
| Casein kinase I isoform gamma-2 (CSNK1G2, Homo sapiens, UniProt P78368) | 102 |
| Macrophage-stimulating protein receptor (MST1R, Homo sapiens, UniProt Q04912) | 89.6 |
